Measurements from different studies.
Values joined by “and” are separate records of one study, mostly repeats; a detail may differ. Numbers after ± are the reported error.
Ribonucleoside-diphosphate reductase large subunit: Ribonucleoside-diphosphate reductase large subunit (Homo sapiens, UniProt P23921)
Chain of UniProt P23921 (whole entry, looked up): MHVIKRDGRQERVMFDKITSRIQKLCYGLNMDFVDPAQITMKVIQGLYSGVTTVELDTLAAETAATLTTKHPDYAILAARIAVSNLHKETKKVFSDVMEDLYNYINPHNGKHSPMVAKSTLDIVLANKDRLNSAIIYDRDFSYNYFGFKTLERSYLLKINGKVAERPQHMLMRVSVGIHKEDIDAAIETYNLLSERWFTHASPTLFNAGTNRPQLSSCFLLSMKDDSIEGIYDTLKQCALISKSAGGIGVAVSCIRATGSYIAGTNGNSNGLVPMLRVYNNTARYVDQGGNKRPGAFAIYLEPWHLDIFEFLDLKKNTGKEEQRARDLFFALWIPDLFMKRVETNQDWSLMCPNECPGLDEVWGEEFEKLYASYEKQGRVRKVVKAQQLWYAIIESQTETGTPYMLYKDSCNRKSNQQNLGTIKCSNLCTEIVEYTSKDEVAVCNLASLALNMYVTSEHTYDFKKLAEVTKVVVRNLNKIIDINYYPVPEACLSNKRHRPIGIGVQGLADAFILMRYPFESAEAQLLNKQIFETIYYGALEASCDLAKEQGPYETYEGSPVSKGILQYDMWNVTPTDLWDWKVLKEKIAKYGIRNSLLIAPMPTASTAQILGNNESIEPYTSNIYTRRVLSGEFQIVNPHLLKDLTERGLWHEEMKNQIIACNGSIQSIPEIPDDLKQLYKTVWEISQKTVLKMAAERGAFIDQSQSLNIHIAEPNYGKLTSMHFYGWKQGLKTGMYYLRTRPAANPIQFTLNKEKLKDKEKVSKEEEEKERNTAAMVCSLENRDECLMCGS
BCL2L1: Bcl-2-like protein 1 (BCL2L1, Homo sapiens, UniProt Q07817)
Chain of UniProt Q07817 (whole entry, looked up): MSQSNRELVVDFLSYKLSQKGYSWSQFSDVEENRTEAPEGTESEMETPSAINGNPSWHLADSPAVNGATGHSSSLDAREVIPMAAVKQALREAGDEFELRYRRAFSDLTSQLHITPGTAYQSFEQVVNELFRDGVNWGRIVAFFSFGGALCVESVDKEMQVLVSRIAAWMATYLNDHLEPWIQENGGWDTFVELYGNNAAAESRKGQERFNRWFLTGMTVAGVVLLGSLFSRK
Methyl-accepting chemotaxis protein Tlp3 sensing domain: Methyl-accepting chemotaxis protein Tlp3, sensing domain (Campylobacter jejuni, UniProt Q0P864)
B1: calmodulin N-terminal domain; chain AEQLTEEQIAEFKEAFALFDKDGDGTITTKELGTVMRSLGQNPTEAELQDMINEVDADGNGTIDFPEFLSLMARK
Chain of UniProt Q12965 (whole entry, looked up): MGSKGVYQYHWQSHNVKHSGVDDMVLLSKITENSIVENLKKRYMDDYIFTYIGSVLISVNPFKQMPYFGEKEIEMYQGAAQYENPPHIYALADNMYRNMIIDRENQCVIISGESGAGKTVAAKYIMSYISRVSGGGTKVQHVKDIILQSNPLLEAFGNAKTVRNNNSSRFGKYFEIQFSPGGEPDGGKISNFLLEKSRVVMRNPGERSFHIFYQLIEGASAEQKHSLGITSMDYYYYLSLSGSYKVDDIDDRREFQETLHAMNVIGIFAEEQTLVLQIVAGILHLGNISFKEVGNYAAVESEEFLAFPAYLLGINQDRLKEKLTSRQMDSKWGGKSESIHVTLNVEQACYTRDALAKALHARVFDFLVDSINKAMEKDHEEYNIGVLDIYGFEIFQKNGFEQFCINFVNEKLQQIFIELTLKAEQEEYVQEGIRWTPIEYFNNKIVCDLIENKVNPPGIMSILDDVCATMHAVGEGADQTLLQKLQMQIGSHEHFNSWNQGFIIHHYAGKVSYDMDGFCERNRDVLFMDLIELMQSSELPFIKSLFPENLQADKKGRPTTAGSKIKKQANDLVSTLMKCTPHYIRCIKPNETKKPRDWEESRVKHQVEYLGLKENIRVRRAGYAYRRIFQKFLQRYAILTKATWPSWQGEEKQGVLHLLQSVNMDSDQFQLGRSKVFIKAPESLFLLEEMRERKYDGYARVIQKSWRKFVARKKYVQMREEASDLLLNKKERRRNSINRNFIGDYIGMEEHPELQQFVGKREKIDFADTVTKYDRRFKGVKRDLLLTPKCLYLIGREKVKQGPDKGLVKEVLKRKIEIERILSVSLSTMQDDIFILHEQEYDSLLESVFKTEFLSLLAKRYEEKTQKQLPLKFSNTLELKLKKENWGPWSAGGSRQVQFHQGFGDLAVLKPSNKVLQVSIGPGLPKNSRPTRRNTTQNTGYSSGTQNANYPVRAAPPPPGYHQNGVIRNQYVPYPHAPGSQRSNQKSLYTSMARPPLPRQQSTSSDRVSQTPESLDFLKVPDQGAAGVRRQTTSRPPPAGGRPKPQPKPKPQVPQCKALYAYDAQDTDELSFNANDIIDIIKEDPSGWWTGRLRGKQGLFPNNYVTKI
Chain of UniProt P08684 (whole entry, unmodified, looked up): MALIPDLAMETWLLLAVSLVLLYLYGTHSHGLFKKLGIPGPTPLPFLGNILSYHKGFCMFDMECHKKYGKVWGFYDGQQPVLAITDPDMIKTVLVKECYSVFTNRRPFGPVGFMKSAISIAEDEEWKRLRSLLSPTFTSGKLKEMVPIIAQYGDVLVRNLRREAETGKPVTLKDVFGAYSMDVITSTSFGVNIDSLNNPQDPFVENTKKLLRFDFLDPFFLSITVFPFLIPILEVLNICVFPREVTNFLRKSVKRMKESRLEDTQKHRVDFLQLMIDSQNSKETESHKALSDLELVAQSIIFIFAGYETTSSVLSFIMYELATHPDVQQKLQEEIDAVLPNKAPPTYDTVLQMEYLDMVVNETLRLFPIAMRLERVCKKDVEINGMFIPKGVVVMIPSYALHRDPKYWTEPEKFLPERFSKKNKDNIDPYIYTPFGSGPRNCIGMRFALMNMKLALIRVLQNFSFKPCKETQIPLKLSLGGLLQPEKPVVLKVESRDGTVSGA
Chain of UniProt P15090 (whole entry, looked up): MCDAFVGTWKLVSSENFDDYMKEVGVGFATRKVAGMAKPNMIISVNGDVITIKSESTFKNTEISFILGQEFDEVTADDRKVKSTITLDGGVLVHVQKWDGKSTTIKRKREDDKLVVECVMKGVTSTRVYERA
Chain of UniProt P20782 (whole entry, unmodified, looked up): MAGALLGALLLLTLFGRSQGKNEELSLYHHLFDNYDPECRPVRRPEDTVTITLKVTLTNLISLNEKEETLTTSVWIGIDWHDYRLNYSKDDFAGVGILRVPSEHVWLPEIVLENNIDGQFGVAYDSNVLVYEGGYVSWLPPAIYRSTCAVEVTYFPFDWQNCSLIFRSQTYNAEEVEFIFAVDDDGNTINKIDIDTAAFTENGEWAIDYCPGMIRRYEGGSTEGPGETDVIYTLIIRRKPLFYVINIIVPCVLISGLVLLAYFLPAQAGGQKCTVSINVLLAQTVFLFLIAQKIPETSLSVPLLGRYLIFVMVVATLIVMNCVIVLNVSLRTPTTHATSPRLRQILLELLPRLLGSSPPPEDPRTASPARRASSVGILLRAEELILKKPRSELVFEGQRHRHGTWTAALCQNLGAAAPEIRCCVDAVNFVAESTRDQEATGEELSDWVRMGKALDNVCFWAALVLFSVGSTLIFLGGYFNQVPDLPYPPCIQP
Chain of UniProt O15530 (whole entry, unmodified, looked up): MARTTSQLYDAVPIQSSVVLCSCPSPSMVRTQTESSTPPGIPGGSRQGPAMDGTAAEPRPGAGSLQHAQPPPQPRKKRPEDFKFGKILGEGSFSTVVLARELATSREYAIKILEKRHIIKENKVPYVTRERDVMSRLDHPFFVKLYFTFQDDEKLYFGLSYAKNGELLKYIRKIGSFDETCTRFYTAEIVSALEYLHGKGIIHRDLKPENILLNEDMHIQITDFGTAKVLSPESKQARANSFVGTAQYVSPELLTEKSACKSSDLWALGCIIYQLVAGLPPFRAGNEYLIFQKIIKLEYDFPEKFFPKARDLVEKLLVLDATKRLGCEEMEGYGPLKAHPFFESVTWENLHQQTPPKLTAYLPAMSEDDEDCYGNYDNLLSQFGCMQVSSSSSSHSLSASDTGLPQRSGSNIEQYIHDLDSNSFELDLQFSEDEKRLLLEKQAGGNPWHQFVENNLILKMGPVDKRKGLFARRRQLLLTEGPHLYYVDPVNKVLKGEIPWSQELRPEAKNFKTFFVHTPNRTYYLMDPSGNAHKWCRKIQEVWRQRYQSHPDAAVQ
Chain of UniProt P02716 (whole entry, unmodified, looked up): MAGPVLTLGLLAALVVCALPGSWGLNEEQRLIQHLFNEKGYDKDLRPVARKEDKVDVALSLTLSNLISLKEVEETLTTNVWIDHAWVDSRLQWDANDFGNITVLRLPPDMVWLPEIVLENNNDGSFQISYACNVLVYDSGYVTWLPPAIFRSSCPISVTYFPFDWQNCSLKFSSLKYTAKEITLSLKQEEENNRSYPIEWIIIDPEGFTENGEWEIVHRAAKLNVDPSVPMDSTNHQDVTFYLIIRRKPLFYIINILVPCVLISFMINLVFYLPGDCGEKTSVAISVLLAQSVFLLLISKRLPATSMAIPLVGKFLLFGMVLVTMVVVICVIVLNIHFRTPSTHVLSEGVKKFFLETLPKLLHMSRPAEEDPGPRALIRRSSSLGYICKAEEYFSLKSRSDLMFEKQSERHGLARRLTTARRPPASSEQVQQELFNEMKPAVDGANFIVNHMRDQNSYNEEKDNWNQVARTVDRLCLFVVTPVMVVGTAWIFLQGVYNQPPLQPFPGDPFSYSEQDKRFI
Chain of UniProt Q8JGN5 (whole entry, looked up): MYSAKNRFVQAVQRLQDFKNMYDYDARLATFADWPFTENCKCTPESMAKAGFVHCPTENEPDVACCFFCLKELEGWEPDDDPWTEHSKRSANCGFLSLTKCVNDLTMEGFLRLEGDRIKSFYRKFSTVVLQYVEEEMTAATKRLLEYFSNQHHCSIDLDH
Chain of UniProt P0DMS8 (whole entry, looked up): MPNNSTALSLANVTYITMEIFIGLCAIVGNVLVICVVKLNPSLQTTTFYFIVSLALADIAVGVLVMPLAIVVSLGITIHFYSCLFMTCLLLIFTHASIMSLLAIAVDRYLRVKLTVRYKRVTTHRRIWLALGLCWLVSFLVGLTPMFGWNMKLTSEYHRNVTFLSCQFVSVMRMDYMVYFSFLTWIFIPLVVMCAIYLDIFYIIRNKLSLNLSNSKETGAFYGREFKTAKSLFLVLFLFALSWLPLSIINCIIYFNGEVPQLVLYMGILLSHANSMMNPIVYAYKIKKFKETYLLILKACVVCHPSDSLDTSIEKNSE
Chain of UniProt P0CG47 (1-75, looked up): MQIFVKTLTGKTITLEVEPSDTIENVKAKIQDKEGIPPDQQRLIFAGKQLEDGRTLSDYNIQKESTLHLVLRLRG

Cc1cccc(Cn2cc(COc3cc(-n4nc(C(C)(C)C)oc4=O)c(Cl)cc3Cl)nn2)c1  IC50 (Toxoplasma gondii; intracellular parasite growth, luminescence; HFF, wild type, NanoLuc reporter; 96 h): < 2.5 µM and 1.8 µM
OC(Cn1cncn1)(Cn1cncn1)c1ccc(F)cc1F  EC20 (cytochrome c release, ELISA; BALB/cByJ female mouse liver mitochondria; 30 min; baseline: alamethicin maximal release): > 400 µM
CC(=O)[C@H]1CC[C@H]2[C@@H]3CCC4=CC(=O)CC[C@]4(C)[C@H]3CC[C@]12C  Kd (Cytochrome P450 3A4 (CYP3A4, Homo sapiens, UniProt P08684, S18F); POPC Nanodiscs; pH 7.4, 37 °C, third binding step): 36 µM
O=C(NNC(=O)c1c(O)ccc2ccccc12)c1cccnc1  Kd (Ribonucleoside-diphosphate reductase large subunit; binding, fluorescence; pH 8): 89.6 µM
C[N+](C)(C)CCO  Kd (Chrnd/Chrna1/Chrne (Mus musculus, UniProt P02716+P04756+P20782, D117E); binding): 3200 ± 600 µM
Oc1coccc1=S  Kd (Carbonic anhydrase 2, Co(II)-substituted (CA2, Bos taurus, UniProt P00921); binding, UV-vis titration; overall): 198 µM
O=P(O)(O)O[C@@H]1[C@H](O)[C@H](O)[C@@H](OP(=O)(O)O)[C@H](OP(=O)(O)O)[C@H]1O  Kd (Unconventional myosin-Ie, tail domain (MYO1E, Homo sapiens, UniProt Q12965); binding, stopped-flow fluorescence; pH 7.0, 22 °C, added: competing PtdIns(4,5)P2 LUVs 2%, 1 µM calmodulin): 11 ± 2 µM
B1 (calmodulin N-terminal domain)  Kd (rat NaV1.2 IQ motif; FRET biosensor titration; pH 7.4, 22 °C, apo, no calcium; lower limit): > 100 µM
AGAQLHRFADDY  Kd (BCL2L1; yeast display titration; peptide; 2 h, pH 8.0, room temperature): 0.03 ± 0.009 µM
C[C@H](N)C(=O)N[C@@H](CCCNC(=N)N)C(=O)N[C@H](C(=O)N[C@@H](CCCCN)C(=O)N[C@@H](CCC(N)=O)C(=O)N[C@H](C(=O)N[C@@H](C)C(=O)N[C@@H](CCCNC(=N)N)C(=O)N[C@@H](CCCCN)C(=O)N[C@@H](CO)C(=O)N[C@H](C(=O)NCC(=O)O)[C@@H](C)O)[C@@H](C)O)[C@@H](C)O  Kd (Baculoviral IAP repeat-containing protein 5.1-A (birc5.1-a, Xenopus laevis, UniProt Q8JGN5); ITC; pH 7.6, 25 °C): 56.2 ± 11.1 µM
Cn1cc(NC(=O)c2cc(NC(=O)c3cc(NC=O)cn3C)cn2C)cc1C(=O)NCCC(=N)N  Kd (HIV-1 nucleocapsid-SL3 RNA complex; binding, ESI-FTMS; pH 7.5): 58.1 ± 6.3 µM
CC(=O)N[C@@H](CC(C)C)C(=O)N[C@@H](CCCCN)C(=O)N[C@@H](CCCCN)C(=O)N[C@@H](CC(C)C)C(=O)N[C@@H](CC(C)C)C(=O)N[C@@H](CCCCN)C(=O)N[C@@H](Cc1c[nH]c2ccccc12)C(=O)N[C@@H](CC(C)C)C(=O)N[C@@H](CCCCN)C(=O)N[C@@H](CCCCN)C(=O)N[C@@H](CC(C)C)C(=O)N[C@@H](CC(C)C)C(=O)N[C@@H](CCCCN)C(=O)N[C@@H](CC(C)C)C(=O)N[C@@H](C)C(=O)NCC(N)=O  Kd (HIV-1 RRE hairpin RNA; competitive fluorescence anisotropy; pH 7.4, 20 °C, added: rhodamine-Rev peptide): 0.0012 ± 7e-05 µM
CC1=C(/C=C/C(C)=C/C=C/C(C)=C\CO)C(C)(C)CCC1  Kd (Retinol-binding protein 2 (Rbp2, Rattus norvegicus, UniProt P06768); binding, fluorescence titration; pH 7.4, 25 °C): 0.03 ± 0.012 µM
CC(C)(C)c1nn(-c2cc(OCc3cn(Cc4ccc(C(F)(F)F)cc4)nn3)c(Cl)cc2Cl)c(=O)o1  IC50 (Toxoplasma gondii; intracellular parasite growth, luminescence; HFF, wild type, NanoLuc reporter; 96 h): 1 µM and < 2.5 µM
Cn1nc(CC(=O)Nc2cc(S(=O)(=O)Nc3cccc(Cl)c3)ccc2O)c2ccccc2c1=O  Kd (APOE (Homo sapiens, UniProt P02649); SYPRO Orange displacement; pH 7.4, 25 °C): 8.8 ± 0.4 µM
COc1ccc(-c2ccsc2)c(/C=N/NC(=O)c2ccccc2O)c1O  Kd (Ribonucleoside-diphosphate reductase large subunit; binding, fluorescence): 9.4 µM
FGAQLGRVASDF  Kd (BCL2L1; yeast display titration; peptide; 2 h, pH 8.0, room temperature): 0.009 ± 0.002 µM
CC1=C(/C=C/C(C)=C/C=C/C(C)=C/C=C/C=C(C)/C=C/C=C(C)/C=C/C2=C(C)C[C@H](O)CC2(C)C)C(C)(C)C[C@H](O)C1  Kd (Beta-lactoglobulin (LGB, Bos taurus, UniProt P02754); binding, SPR): 2.7 µM
CC[N+](CC)(CC)CC  Kd (maxi-KCa channel, rat; fast channel block, blocker, single-channel recording at +30 mV; external application, open state): 190 ± 37 µM
NCCS(=O)(=O)O  EC20 (mitochondrial swelling; BALB/cByJ female mouse liver mitochondria; 30 min, added: succinate + rotenone; baseline: CaCl2 maximal swelling): > 800 µM
FGAQLNRIAEDF  Kd (BCL2L1; yeast display titration; peptide; 2 h, pH 8.0, room temperature): 0.0021 ± 0.0002 µM
O=S(=O)(O)c1cccc2c(-c3ccc(Nc4ccccc4)c4c(S(=O)(=O)O)cccc34)ccc(Nc3ccccc3)c12  Kd (uncharacterized protein (Drosophila suzukii, UniProt A0AB39ZGK5); fluorescent probe titration): 0.829 µM
COc1ccc(-n2nc3c(NC(=O)CCC(=O)NCCOCCOCCNC(=O)CCCCCNC(=O)COc4ccc(/C=C/C5=[N+]6C(=Cc7ccc(-c8cccs8)n7[B-]6(F)F)C=C5)cc4)nc4ccccc4n3c2=O)cc1  Kd (ADORA3 (Homo sapiens, UniProt P0DMS8); NanoBRET saturation binding; HEK293 expressing Nluc-A3; 1 h, 37 °C): 0.0246 ± 0.0083 µM
O=C(O)C(F)(F)C(F)(F)C(F)(F)C(F)(F)C(F)(F)C(F)(F)C(F)(F)C(F)(F)C(F)(F)C(F)(F)C(F)(F)C(F)(F)C(F)(F)F  Kd (FABP4 (Homo sapiens, UniProt P15090); ligand displacement, fluorescence): < 1 µM
O=C(NNC(=O)c1ccccc1O)c1cccnc1  Kd (Ribonucleoside-diphosphate reductase large subunit; binding, fluorescence): 2.9 µM
O=C1c2c(O)ccc(O)c2C(=O)c2c(NCCNCCO)ccc(NCCNCCO)c21  Kd (HIV-1 nucleocapsid-SL4 RNA complex; binding, ESI-FTMS; pH 7.5): 6.9 ± 5.9 µM
CC(=O)N[C@@H](Cc1c[nH]c2ccccc12)C(=O)N[C@@H](CCCCN)C(=O)N[C@@H](CCCCN)C(=O)N[C@@H](CC(C)C)C(=O)N[C@@H](CC(C)C)C(=O)N[C@@H](CCCCN)C(=O)N[C@@H](CC(C)C)C(=O)N[C@@H](CC(C)C)C(=O)N[C@@H](CCCCN)C(=O)N[C@@H](CCCCN)C(=O)N[C@@H](CC(C)C)C(=O)N[C@@H](CC(C)C)C(=O)N[C@@H](CCCCN)C(=O)N[C@@H](CC(C)C)C(=O)N[C@@H](C)C(=O)NCC(N)=O  Kd (HIV-1 TAR hairpin RNA; competitive fluorescence anisotropy; pH 7.4, 20 °C, added: rhodamine-Rev peptide): 0.002 ± 0.0003 µM
Cn1cnc2c1c(=O)n(CCCn1c(=O)c3[nH]cnc3n(C)c1=O)c(=O)n2C  Kd (Chitinase-3-like protein 2 (CHI3L2, Homo sapiens, UniProt Q15782); tryptophan fluorescence; pH 7.5): 100 ± 7 µM
Ristocetin  Kd (Polyubiquitin-B, residues 1-75 fusion (UBB, Homo sapiens, UniProt P0CG47); binding, SPR; 25 °C, ubiquitin fusion peptide): 2 ± 0.3 µM
COc1ccc(-c2ccccc2)c(/C=N/NC(=O)c2ccccc2O)c1O  Kd (Ribonucleoside-diphosphate reductase large subunit; binding, fluorescence; pH 8): 35.4 µM
Nc1ncnc2c1ncn2[C@@H]1O[C@H](COP(=O)(O)OP(=O)(O)O)[C@@H](O)[C@H]1O  Kd (kinase; binding, surface plasmon resonance; 25 °C, 10 mM MgCl2): 43 ± 6 µM
CC(C)C[C@H](N)C(=O)O  Kd (Methyl-accepting chemotaxis protein Tlp3 sensing domain; binding, thermal shift curve fitting; at Tm sensing domain): 2160 ± 411 µM
NC(=O)C1=CN([C@@H]2O[C@H](COP(=O)(O)OP(=O)(O)OC[C@H]3O[C@@H](n4cnc5c(N)ncnc54)[C@H](O)[C@@H]3O)[C@@H](O)[C@H]2O)C=CC1  Kd (Pyrroline-5-carboxylate reductase 3 (PYCR3, Homo sapiens, UniProt Q53H96); binding, bisubstrate kinetics; pH 7.5, 26 °C, equilibrium ordered bi bi, compound binds first): 79 ± 29 µM
CCCCCCCCCCCCCCCC(=O)OC[C@H](COP(=O)(O)OC1[C@H](O)[C@H](OP(=O)(O)O)C(OP(=O)(O)O)[C@H](OP(=O)(O)O)[C@H]1O)OC(=O)CCCCCCCCCCCCCCC (stereo partly shown)  Kd (3-phosphoinositide-dependent protein kinase 1, PH domain (PDPK1, Homo sapiens, UniProt O15530, T513E); lipid binding, FRET competition; plasma membrane-like bilayers): 0.007 ± 0.002 µM
CC(=O)N[C@@H](CC(C)C)C(=O)N[C@@H](CCCCN)C(=O)N[C@@H](CCCCN)C(=O)N[C@@H](CC(C)C)C(=O)N[C@@H](Cc1c[nH]c2ccccc12)C(=O)N[C@@H](CCCCN)C(=O)N[C@@H](CC(C)C)C(=O)N[C@@H](CC(C)C)C(=O)N[C@@H](CCCCN)C(=O)N[C@@H](CCCCN)C(=O)N[C@@H](CC(C)C)C(=O)N[C@@H](CC(C)C)C(=O)N[C@@H](CCCCN)C(=O)N[C@@H](CC(C)C)C(=O)N[C@@H](C)C(=O)NCC(N)=O  Kd (HIV-1 RRE hairpin RNA; competitive fluorescence anisotropy; pH 7.4, 20 °C, added: rhodamine-Rev peptide): 0.0062 ± 0.0005 µM
CC(C)[C@H](N)C(=O)O  Kd (Methyl-accepting chemotaxis protein Tlp3 sensing domain; binding, thermal shift; 25 °C, curve fitting, ITC enthalpy): 688 ± 188 µM
COc1ccc(-c2cnc(-c3ccccc3O)s2)cc1  Kd (Ribonucleoside-diphosphate reductase large subunit; binding, fluorescence): 9.9 µM
CCCCCCCCCCCCCCCC(=O)OC[C@H](COP(=O)(O)O[C@@H]1[C@H](O)[C@H](OP(=O)(O)O)[C@@H](O)[C@H](O)[C@H]1O)OC(=O)CCCCCCCCCCCCCCC  Kd (Vacuolar protein sorting-associated protein 74 (VPS74, Saccharomyces cerevisiae, UniProt Q06385); surface plasmon resonance; DOPC vesicles 3 mol% lipid; pH 7.5, 25 °C): > 50 µM
O=C(NN=Cc1ccc(C[n+]2ccccc2)cc1)c1ccc2ccc3ccc(C(=O)NN=Cc4ccc(C[n+]5ccccc5)cc4)nc3c2n1  Kd (telomeric G4 DNA hybrid-2; binding, fluorescence titration; 100 mM KCl buffer; pH 7.2, added: labelled G4 DNA 2 nM): > 10 µM
CCC[C@H](N)C(=O)O  Kd (Methyl-accepting chemotaxis protein Tlp3 sensing domain; binding, thermal shift zero heat capacity; at Tm sensing domain): 1420 ± 470 µM

A few entries again:
O=S(=O)(O)c1cccc2c(-c3ccc(Nc4ccccc4)c4c(S(=O)(=O)O)cccc34)ccc(Nc3ccccc3)c12  Kd (uncharacterized protein (Drosophila suzukii, UniProt A0AB39ZGK5); fluorescent probe titration): 0.829 µM
COc1ccc(-n2nc3c(NC(=O)CCC(=O)NCCOCCOCCNC(=O)CCCCCNC(=O)COc4ccc(/C=C/C5=[N+]6C(=Cc7ccc(-c8cccs8)n7[B-]6(F)F)C=C5)cc4)nc4ccccc4n3c2=O)cc1  Kd (ADORA3 (Homo sapiens, UniProt P0DMS8); NanoBRET saturation binding; HEK293 expressing Nluc-A3; 1 h, 37 °C): 0.0246 ± 0.0083 µM
O=C(O)C(F)(F)C(F)(F)C(F)(F)C(F)(F)C(F)(F)C(F)(F)C(F)(F)C(F)(F)C(F)(F)C(F)(F)C(F)(F)C(F)(F)C(F)(F)F  Kd (FABP4 (Homo sapiens, UniProt P15090); ligand displacement, fluorescence): < 1 µM
O=C(NNC(=O)c1ccccc1O)c1cccnc1  Kd (Ribonucleoside-diphosphate reductase large subunit; binding, fluorescence): 2.9 µM
O=C1c2c(O)ccc(O)c2C(=O)c2c(NCCNCCO)ccc(NCCNCCO)c21  Kd (HIV-1 nucleocapsid-SL4 RNA complex; binding, ESI-FTMS; pH 7.5): 6.9 ± 5.9 µM
CC(=O)N[C@@H](Cc1c[nH]c2ccccc12)C(=O)N[C@@H](CCCCN)C(=O)N[C@@H](CCCCN)C(=O)N[C@@H](CC(C)C)C(=O)N[C@@H](CC(C)C)C(=O)N[C@@H](CCCCN)C(=O)N[C@@H](CC(C)C)C(=O)N[C@@H](CC(C)C)C(=O)N[C@@H](CCCCN)C(=O)N[C@@H](CCCCN)C(=O)N[C@@H](CC(C)C)C(=O)N[C@@H](CC(C)C)C(=O)N[C@@H](CCCCN)C(=O)N[C@@H](CC(C)C)C(=O)N[C@@H](C)C(=O)NCC(N)=O  Kd (HIV-1 TAR hairpin RNA; competitive fluorescence anisotropy; pH 7.4, 20 °C, added: rhodamine-Rev peptide): 0.002 ± 0.0003 µM
